Measurements collected from several papers.
± marks the error that the study gave.
Target: Cytochrome P450 3A4 (CYP3A4, Homo sapiens, UniProt P08684)
Sequence of UniProt P08684 (whole entry, looked up): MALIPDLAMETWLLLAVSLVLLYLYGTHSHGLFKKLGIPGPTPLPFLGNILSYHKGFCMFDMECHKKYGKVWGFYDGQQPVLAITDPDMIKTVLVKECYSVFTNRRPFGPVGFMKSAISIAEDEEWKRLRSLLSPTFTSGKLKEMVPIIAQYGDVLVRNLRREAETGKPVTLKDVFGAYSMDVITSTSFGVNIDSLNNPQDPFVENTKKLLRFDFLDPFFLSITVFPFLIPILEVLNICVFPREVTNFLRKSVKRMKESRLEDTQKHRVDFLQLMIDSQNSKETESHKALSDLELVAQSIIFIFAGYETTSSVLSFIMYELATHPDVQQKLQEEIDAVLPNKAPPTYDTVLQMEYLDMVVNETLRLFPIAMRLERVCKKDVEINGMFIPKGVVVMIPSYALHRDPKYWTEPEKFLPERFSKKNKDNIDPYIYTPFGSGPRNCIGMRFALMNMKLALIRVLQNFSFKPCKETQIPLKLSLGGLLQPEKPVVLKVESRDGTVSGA

SMILES | assay | system | setting | endpoint | result
CCc1nc(N)nc(N)c1C#CC(C)c1cc(-c2ccnc(OC)c2)ccc1OC (racemic) | enzyme activity, inhibitor, fluorescence |  |  | IC50 | 2600 nM
O=C(CNC(=O)C(F)(F)F)NC(CSC(Cc1ccccc1)C(=O)NCCc1cccnc1)Cc1ccccc1 (stereo not drawn) | thermal stability |  |  | ΔTm | 3.1 °C
CC(=O)OC1(C(C)=O)CCC2C3C=C(C)C4=CC(=O)C(O)CC4(C)C3CCC21C (stereo not drawn) | substrate | recombinant enzyme | 62 µM, 25 min | formation rate | 4.9 ± 0.1 pmol/min/pmol P450
NC(COc1ccccc1C(F)(F)F)c1ccccc1 (stereo not drawn) | substrate | purified enzyme | 50 µM, pH 7.4 | metabolic rate | 15.4 ± 6.7 nmol/min/mg protein
O=C(CNC(=O)C(F)(F)F)NC(CSC(Cc1ccccc1)C(=O)NCCCc1cccnc1)Cc1ccccc1 (stereo not drawn) | enzyme activity, inhibitor |  |  | IC50 | 300 nM
O=C(N[C@@H](Cn1ccnc1)c1ccc(F)cc1F)c1ccc(-c2nnc(-c3ccccc3)o2)cc1 |  |  |  | IC50 | 180 ± 14 nM
O=C(NCCCc1cccnc1)C(Cc1ccccc1)SCC(Cc1ccccc1)NC(=O)C(F)(F)F (stereo not drawn) | enzyme activity, inhibitor |  |  | IC50 | 310 nM
Cc1ccc(OCC(=O)N(Cc2cccs2)c2ccn[nH]2)cc1 | enzyme activity, inhibitor | human, liver microsomes | 10 µM, testosterone probe | inhibition | 35%
CC(C)c1nc(CN(C)C(=O)NC(C(=O)NC(Cc2ccccc2)CC(O)C(N)Cc2ccccc2)C(C)C)cs1 (stereo not drawn) | ligand |  | concentration not given, with: cytochrome P450 reductase | reducible fraction | 40%
CCc1nc(N)nc(N)c1C#C[C@H](C)c1cc(-c2cc(C)nc(C)c2)ccc1Cl | enzyme activity, inhibitor, fluorescence |  |  | IC50 | 41000 nM
COc1cc(OC)c(F)c(/C=C/c2cnc3ccn(S(=O)(=O)c4cn(CCF)cn4)c3n2)c1F | enzyme activity | human liver microsomes | 10 µM, 20 min, with: midazolam | inhibition | 71%
Cc1c(NC(=O)c2ccc3c(c2)CC[C@@H]2C[C@@](O)(C(F)(F)F)CC[C@@]32Cc2ccccc2)ccc[n+]1[O-] | enzyme activity, reversible inhibitor | pooled human liver microsomes | with: nifedipine oxidation | IC50 | > 100000 nM
CC(C)Cn1c(SCC(=O)N2CCc3ccccc3C2)nc2cc(Cl)ccc2c1=O | enzyme activity, inhibitor, fluorescence | insect cell microsomes | 10 µM | inhibition | 76%
CC(C)(C)OC(=O)NC(CSC(Cc1ccccc1)C(=O)NCCCc1cccnc1)CC1c2ccccc2-c2ccccc21 (mixture of isomers) | enzyme activity, inhibitor |  |  | IC50 | 1320 nM
O=C(CS(=O)(=O)Cc1ccco1)C12CC3CC(CC(C3)C1)C2 | enzyme activity, inhibitor |  | 10 µM, with: substrate BFC | inhibition | 86%
O=C(NCCCc1cccnc1)C(Cc1ccccc1)SCC(Cc1ccccc1)NS(=O)(=O)c1ccccc1 (stereo not drawn) | thermal stability |  |  | ΔTm | 5.7 °C
CCc1nc(N)nc(N)c1C#CC(C)c1cc(F)cc(-c2cc(C)nc(C)c2)c1 (racemic) | enzyme activity, inhibitor, fluorescence |  |  | IC50 | 5400 nM
[2H]c1c(NS(C)(=O)=O)c([2H])c2c(C(=O)c3ccc(OCCCN(CCCC)CCCC)cc3)c(CCCC)oc2c1[2H] | metabolic stability | recombinant enzyme | 1 µM, enzyme 10 pmol/mL | half-life | 7.8 min
CCc1nc(N)nc(N)c1C#CC(C)c1cc(-c2cc(C)nc(C)c2)ccc1OC(F)(F)F (racemic) | enzyme activity, inhibitor, fluorescence |  |  | IC50 | > 50000 nM
CC(C)c1nc(CN(C)C(=O)NC(C(=O)NC(Cc2ccccc2)CC(O)C(Cc2ccccc2)NC(=O)OCc2cccs2)C(C)C)cs1 (stereo not drawn) | ligand, spectral binding titration |  | saturating compound | high-spin heme fraction | ~44%
COc1ccc2cc(NC(=O)c3cc(-c4cccnc4)nc4ccccc34)ccc2c1 | substrate, measured: naphthalene-hydroxylated metabolite M1 | baculosomes |  | kcat | 6.7 min⁻¹

A few entries again:
SMILES | assay | system | setting | endpoint | result
CC(C)Cn1c(SCC(=O)N2CCc3ccccc3C2)nc2cc(Cl)ccc2c1=O | enzyme activity, inhibitor, fluorescence | insect cell microsomes | 10 µM | inhibition | 76%
CC(C)(C)OC(=O)NC(CSC(Cc1ccccc1)C(=O)NCCCc1cccnc1)CC1c2ccccc2-c2ccccc21 (mixture of isomers) | enzyme activity, inhibitor |  |  | IC50 | 1320 nM
